Measurements pooled from the literature.
Parts stem from different laboratories: compare values within a part only.
Chain of UniProt P61075 (whole entry, looked up): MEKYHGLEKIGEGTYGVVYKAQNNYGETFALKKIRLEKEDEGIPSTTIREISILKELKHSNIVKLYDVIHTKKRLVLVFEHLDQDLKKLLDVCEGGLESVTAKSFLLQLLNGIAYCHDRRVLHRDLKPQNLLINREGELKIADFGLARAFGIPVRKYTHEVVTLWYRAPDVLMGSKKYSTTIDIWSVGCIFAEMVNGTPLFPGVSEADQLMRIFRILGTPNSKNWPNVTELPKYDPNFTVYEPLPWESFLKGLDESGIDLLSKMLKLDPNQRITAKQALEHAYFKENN
Chain of UniProt P9WI81 (whole entry, looked up): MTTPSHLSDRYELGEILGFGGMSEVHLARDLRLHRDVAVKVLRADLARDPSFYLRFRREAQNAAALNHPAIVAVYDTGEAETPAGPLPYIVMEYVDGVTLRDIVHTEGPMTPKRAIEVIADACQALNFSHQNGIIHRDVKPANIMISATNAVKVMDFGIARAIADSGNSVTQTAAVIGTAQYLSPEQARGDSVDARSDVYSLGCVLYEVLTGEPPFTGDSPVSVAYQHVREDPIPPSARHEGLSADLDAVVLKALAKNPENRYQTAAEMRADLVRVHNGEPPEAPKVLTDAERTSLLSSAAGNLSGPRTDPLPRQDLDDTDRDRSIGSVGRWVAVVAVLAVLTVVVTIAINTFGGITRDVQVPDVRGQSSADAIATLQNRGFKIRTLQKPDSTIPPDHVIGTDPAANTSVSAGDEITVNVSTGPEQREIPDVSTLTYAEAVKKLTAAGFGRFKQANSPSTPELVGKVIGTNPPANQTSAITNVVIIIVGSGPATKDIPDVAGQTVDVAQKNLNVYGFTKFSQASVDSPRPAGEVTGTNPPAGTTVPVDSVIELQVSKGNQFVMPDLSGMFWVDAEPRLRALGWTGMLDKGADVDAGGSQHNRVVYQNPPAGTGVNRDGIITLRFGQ
Chain of UniProt P62344 (whole entry, looked up): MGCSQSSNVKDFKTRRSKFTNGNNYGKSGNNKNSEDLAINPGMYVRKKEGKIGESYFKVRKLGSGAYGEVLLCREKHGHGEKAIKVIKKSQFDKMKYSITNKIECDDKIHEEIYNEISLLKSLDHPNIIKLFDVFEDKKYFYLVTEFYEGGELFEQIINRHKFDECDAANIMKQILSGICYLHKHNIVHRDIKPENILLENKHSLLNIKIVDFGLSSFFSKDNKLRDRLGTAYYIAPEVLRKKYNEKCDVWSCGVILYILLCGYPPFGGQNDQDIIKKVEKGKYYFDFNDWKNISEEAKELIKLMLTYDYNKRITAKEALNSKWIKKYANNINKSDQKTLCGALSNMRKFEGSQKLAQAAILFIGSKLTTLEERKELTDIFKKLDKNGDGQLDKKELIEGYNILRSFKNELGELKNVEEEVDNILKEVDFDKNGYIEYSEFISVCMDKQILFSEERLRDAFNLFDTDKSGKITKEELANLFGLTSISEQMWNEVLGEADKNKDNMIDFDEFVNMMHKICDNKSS

Sample 1
Target: Calcium/calmodulin-dependent protein kinase type II subunit alpha (CAMK2A, Homo sapiens, UniProt Q9UQM7)
Chain of UniProt Q9UQM7 (whole entry, looked up): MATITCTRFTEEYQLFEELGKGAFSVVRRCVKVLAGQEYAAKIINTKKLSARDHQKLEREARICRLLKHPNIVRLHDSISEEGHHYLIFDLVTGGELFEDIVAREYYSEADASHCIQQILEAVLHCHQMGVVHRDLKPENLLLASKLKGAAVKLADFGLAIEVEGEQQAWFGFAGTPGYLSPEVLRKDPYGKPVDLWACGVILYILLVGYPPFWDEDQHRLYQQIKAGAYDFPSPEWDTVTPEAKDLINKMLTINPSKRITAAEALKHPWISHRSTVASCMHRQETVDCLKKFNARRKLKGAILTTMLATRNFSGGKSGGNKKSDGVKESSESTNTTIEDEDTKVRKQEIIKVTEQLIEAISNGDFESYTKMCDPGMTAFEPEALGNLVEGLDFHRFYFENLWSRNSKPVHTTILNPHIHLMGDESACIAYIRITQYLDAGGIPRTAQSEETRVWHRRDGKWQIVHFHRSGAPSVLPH
Read-out: enzyme activity
Mode: inhibitor
Tested at: 10 µM
Endpoint: inhibition
OCC(Cl)(Cl)Cl: -4%
CN[C@H]1[C@H](O)[C@H](O[C@@H]2[C@@H](O)[C@H](O[C@H]3O[C@H](C(C)O)[C@@H](O)[C@H](O)[C@H]3N)[C@@H](N)C[C@H]2N)OC[C@@]1(C)O (some centres unmarked): 25%
O=[N+]([O-])c1ncc[nH]1: -15%
NCc1c[nH]c2ccccc12: 3%
COC[C@]12CN(C)C3[C@@H]4[C@H](OC)[C@H]1[C@@]3([C@@H](OC)C[C@H]2O)[C@@H]1C[C@@]2(O)[C@H](OC(=O)c3ccccc3)[C@@H]1[C@]4(O)[C@@H](O)[C@@H]2OC: 31%

Sample 2
Target: Serine/threonine-protein kinase 33 (STK33, Homo sapiens, UniProt Q9BYT3)
Chain of UniProt Q9BYT3 (whole entry, looked up): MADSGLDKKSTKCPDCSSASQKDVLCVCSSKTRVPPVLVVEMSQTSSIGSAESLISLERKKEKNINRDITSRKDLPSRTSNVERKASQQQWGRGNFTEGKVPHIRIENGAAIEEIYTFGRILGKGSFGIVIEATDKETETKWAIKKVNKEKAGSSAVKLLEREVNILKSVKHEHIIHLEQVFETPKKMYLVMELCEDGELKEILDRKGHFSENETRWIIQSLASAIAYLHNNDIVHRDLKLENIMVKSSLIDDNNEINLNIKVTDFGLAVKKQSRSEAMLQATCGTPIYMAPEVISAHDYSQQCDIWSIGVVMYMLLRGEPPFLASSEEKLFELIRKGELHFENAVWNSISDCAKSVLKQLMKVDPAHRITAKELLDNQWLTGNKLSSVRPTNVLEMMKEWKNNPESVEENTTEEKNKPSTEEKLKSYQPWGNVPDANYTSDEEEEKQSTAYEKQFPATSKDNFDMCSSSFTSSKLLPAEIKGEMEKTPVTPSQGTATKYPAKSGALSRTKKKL
Read-out: enzyme activity
Mode: inhibitor
Method: radiometric
Tested at: 0.5 µM
Endpoint: remaining activity
Ic1cccc(CSc2nnc(-c3ccncc3)o2)c1: 111%
CN([C@@H](Cc1ccc(OS(=O)(=O)c2cccc3cnccc23)cc1)C(=O)N1CCN(c2ccccc2)CC1)S(=O)(=O)c1cccc2cnccc12: 97.3%
COc1cc2c(cc1OC)-c1[nH]nc(Nc3cccc(F)c3)c1C2: 99.5%
O=C(NC(NC(=S)Nc1ccc(F)c([N+](=O)[O-])c1)C(Cl)(Cl)Cl)C(c1ccccc1)c1ccccc1 (centres unmarked): 99.6%
O=c1[nH]c2ccccc2n1C1CCN(Cc2ccc(-c3[nH]c4cc5ncnc5cc4nc3-c3ccccc3)cc2)CC1: 89.6%
COc1cc2ncnc(Nc3ccc(O)c(Br)c3)c2cc1OC: 80.7%
Cn1nc2c3c(cccc31)C(=O)c1ccccc1-2: 81.3%
N#Cc1c(NC(=O)c2cccc3ccccc23)sc2c1CCCC2: 93%
N#C/C(=C\c1ccc(O)c(O)c1)C(=O)NCc1ccccc1: 94.9%
Nc1cccc(-c2cc3c(Oc4cccc(O)c4)ncnc3[nH]2)c1: 80.3%
CN(C)C[C@H]1CCn2c(c(C3=C(c4cn(C)c5ccccc45)C(=O)NC3=O)c3ccccc32)C1: 94.8%
Cc1nc2cc3nc(-c4cccs4)cnc3cc2n1C: 91.5%
O=C1c2ccccc2-c2n[nH]c3cccc1c23: 47.7%
COC[C@H]1OC(=O)c2coc3c2[C@@]1(C)C1=C(C3=O)[C@@H]2CCC(=O)[C@@]2(C)C[C@H]1OC(C)=O: 88.2%
Cc1cn(-c2cc(NC(=O)c3ccc(C)c(Nc4nccc(-c5cccnc5)n4)c3)cc(C(F)(F)F)c2)cn1: 87.1%

Sample 3
Target: DNA polymerase theta, ATPase domain (POLQ, Homo sapiens, UniProt O75417)
Chain of UniProt O75417 (whole entry, unmodified, looked up): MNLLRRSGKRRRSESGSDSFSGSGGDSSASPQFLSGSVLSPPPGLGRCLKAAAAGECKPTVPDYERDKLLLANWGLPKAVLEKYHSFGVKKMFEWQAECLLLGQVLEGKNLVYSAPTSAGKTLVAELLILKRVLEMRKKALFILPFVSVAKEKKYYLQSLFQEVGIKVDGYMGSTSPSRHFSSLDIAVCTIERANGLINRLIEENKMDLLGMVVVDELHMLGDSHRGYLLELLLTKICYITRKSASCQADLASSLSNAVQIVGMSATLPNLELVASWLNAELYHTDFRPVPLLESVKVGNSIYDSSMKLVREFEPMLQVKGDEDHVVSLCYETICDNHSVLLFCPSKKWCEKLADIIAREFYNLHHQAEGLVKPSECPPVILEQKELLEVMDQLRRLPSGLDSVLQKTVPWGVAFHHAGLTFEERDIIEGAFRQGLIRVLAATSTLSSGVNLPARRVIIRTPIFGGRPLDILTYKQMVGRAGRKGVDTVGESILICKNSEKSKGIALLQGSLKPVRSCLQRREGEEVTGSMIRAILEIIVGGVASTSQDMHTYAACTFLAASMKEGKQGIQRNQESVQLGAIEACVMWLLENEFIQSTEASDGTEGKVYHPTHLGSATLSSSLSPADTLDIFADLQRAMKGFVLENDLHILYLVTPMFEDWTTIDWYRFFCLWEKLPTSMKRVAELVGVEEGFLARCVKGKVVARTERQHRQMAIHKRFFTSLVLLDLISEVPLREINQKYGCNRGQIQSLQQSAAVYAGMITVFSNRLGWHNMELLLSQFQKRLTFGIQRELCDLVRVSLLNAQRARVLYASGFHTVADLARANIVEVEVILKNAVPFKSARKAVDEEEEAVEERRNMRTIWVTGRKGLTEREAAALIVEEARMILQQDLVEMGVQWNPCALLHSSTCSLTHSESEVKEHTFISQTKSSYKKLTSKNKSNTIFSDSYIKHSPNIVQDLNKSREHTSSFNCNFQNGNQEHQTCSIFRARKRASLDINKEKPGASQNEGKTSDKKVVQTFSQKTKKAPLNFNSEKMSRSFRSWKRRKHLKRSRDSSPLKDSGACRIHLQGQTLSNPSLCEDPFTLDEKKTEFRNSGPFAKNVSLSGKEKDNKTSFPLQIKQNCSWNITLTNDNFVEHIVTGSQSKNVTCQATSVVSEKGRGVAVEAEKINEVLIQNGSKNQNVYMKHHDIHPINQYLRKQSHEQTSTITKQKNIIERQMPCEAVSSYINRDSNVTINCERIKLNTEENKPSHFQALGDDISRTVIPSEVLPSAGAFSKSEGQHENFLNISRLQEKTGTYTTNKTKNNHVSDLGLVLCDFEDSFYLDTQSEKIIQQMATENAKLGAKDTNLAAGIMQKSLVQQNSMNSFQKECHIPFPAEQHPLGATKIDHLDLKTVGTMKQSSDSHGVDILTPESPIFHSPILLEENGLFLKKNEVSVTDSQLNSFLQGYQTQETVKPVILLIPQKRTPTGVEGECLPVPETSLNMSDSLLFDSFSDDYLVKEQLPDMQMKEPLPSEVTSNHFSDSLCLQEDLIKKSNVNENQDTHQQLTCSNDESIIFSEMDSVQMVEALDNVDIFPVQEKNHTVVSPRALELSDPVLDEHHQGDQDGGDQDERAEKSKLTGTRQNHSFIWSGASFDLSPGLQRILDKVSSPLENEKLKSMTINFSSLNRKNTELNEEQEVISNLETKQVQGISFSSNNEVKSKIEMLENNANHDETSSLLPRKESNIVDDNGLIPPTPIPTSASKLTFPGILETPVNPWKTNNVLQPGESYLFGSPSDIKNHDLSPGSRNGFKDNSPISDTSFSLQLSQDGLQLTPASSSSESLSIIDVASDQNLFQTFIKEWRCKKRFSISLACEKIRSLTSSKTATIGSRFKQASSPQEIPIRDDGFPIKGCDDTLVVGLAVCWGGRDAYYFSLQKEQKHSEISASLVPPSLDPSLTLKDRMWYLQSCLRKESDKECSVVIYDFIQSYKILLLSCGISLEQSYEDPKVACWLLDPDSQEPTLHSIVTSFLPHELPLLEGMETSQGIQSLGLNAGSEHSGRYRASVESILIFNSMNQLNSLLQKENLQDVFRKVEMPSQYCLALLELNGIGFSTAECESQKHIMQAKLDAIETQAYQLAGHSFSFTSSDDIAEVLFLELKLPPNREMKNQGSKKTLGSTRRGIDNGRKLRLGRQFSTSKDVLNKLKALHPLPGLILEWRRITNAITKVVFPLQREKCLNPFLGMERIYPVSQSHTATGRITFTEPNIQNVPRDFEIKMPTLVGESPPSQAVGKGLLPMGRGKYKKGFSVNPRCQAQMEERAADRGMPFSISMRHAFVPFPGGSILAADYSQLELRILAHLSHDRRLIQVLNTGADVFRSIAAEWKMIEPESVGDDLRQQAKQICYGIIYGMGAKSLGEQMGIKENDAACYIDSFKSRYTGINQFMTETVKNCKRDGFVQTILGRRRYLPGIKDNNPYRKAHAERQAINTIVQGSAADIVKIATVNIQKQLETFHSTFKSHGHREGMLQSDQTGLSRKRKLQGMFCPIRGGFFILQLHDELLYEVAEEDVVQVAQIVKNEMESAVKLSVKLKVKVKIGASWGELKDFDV
Read-out: enzyme activity
Mode: inhibitor
Tested at: 77 µM
Endpoint: remaining activity
CCCN1CCc2cccc3c2[C@H]1Cc1ccc(O)c(O)c1-3: 103%
COc1ccc(C(=O)OC2C[C@H]3CC[C@@H](C2)N3C)cc1OC (some centres unmarked): 99.3%
O=[N+]([O-])C=Cc1ccc2c(c1)OCO2: 103%
CCCCCOc1ccc(-c2ccc(-c3ccc(C(=O)N[C@H]4C[C@@H](O)[C@@H](O)NC(=O)[C@@H]5[C@@H](O)[C@@H](C)CN5C(=O)[C@H]([C@@H](C)O)NC(=O)[C@H]([C@H](O)[C@@H](O)c5ccc(O)cc5)NC(=O)[C@@H]5C[C@@H](O)CN5C(=O)[C@H]([C@@H](C)O)NC4=O)cc3)cc2)cc1: 91.8%
C=C1C/C(=C/C)C(=O)O[C@@H]2CCN3CC=C(COC(=O)[C@]1(C)O)[C@H]23: 101%
NCCc1c[nH]c2ccccc12: 86.4%
CCN(CC)c1ncnc2c1ncn2[C@@H]1O[C@H](COP(=O)(O)OP(=O)(O)C(Br)(Br)P(=O)(O)O)[C@@H](O)[C@H]1O: 98.1%
COc1c2c(cc3c1OCO3)CCN(C)C2: 101%

Further values, each from its own experiment
Tested at: 1 µM
CCOCCn1cc(C(=O)Nc2ccc(-n3nc(-c4cccnc4)cc3C(F)(F)F)cn2)ccc1=O — remaining binding (pknB (Mycobacterium tuberculosis, UniProt P9WI81); cell-free assay, competition with immobilised ligand): 95%
Cc1cc(NC(=O)c2cccc(S(F)(F)(F)(F)F)c2)cc(-n2ccn3nc(-c4cccnc4)cc23)c1 — viability (sample G normal colon organoid; CellTiter-Glo; 4 days; baseline: DMSO): 90.7%
FC(F)(F)c1ccc2c(c1)nc(-c1cccnc1)n2C1CC1 — remaining binding (CDPK1 (Plasmodium falciparum, UniProt P62344); cell-free assay, competition with immobilised ligand): 100%
COc1cc(-c2cn(C3CCc4c(F)cccc4N(CC(F)(F)F)C3=O)nn2)ccc1-n1cnc(C)c1 (centres unmarked) — remaining binding (CRK2 (Plasmodium falciparum, UniProt P61075); cell-free assay, competition with immobilised ligand): 100%
